# Measurements of several laboratories.
# ± marks the error that the study gave.
# Cell line: MCF7
SMILES,test,conditions,scale,endpoint,value
CCC(=CCc1c(O)cc2c(c1O)C(=O)CC(c1ccccc1O)O2)CC (centres unmarked),"cytotoxicity, MTT","1.696 µM, 48 h",,growth inhibition,-6.2%
Oc1cccc(-c2cccc(O)n2)n1.[Cl-].[Cl-].[Ru+2].c1ccc(-c2ccnc3c2ccc2c(-c4ccccc4)ccnc23)cc1.c1ccc(-c2ccnc3c2ccc2c(-c4ccccc4)ccnc23)cc1,cell growth or viability,dark,,EC50,18 µM
CC[C@H]([C@H](C)c1ccc(O)cc1)[C@H](CC)c1ccc(O)cc1,"cell growth or viability, ATP luminescence",5 days,,EC50,0.0015 µM
Cc1c(COc2cc(OCc3cccc(C#N)c3)c(CNC(CO)(CO)CO)cc2Cl)cccc1-c1cccc(OCCCCCC(=O)NO)c1,"flow cytometry, PI staining","10 µM, 48 h",,G1 phase cells,59.1%
CCC(=CCc1c(O)cc2c(c1O)C(=O)CC(c1cccc(O)c1)O2)CC (centres unmarked),"cytotoxicity, MTT","27.14 µM, 48 h",,growth inhibition,44.9%
CC(=NN=c1sc(C(=O)c2ccccc2)nn1-c1ccccc1)c1ccc(S(=O)(=O)N2CCC(C)CC2)cc1,flow cytometry,"4.29 µM (IC50), 72 h",,cells in G2/M phase,31.6%
COC(=O)c1cc(NC2=NC(=O)C(=Cc3ccc(N(C)C)cc3)S2)ccc1OC(C)=O,"GC-MS, measured: Adenosine",1 µM,reference: DMSO,metabolite level,-1.02 fold change
CSC(=NN=C(C)c1ccc(S(=O)(=O)N2CCC(C)CC2)cc1)N(C)C,annexin V/PI,"concentration not given, 72 h, at IC50",,necrotic cells,1.54%
CC(C)C[C@@H](NC(=O)[C@H](C)NC(=O)CNC(=O)[C@@H](NC=O)C(C)C)C(=O)N[C@@H](C)C(=O)N[C@@H](C(=O)N[C@H](C(=O)N[C@@H](C(=O)N[C@@H](Cc1c[nH]c2ccccc12)C(=O)N[C@H](CC(C)C)C(=O)N[C@@H](Cc1c[nH]c2ccccc12)C(=O)N[C@H](CC(C)C)C(=O)N[C@@H](Cc1c[nH]c2ccccc12)C(=O)N[C@H](CC(C)C)C(=O)N[C@@H](Cc1c[nH]c2ccccc12)C(=O)NCCO)C(C)C)C(C)C)C(C)C,flow cytometry,"100 nM, 48 h",,cells in G2/M phase,26.1 ± 1.64%
CCC(=CCc1c(O)cc2c(c1O)C(=O)CC(c1ccc(OC)c(O)c1)O2)CC (centres unmarked),"cytotoxicity, MTT","25.1 µM, 48 h",,growth inhibition,68.9%
CSC(=S)N/N=C(\C)c1ccc(S(=O)(=O)N2CCC(C)CC2)cc1,annexin V/PI,"concentration not given, 72 h, at IC50",,total apoptotic cells,15.5%

# For quick reference, copied from above:
SMILES,test,conditions,scale,endpoint,value
CCC(=CCc1c(O)cc2c(c1O)C(=O)CC(c1ccc(OC)c(O)c1)O2)CC (centres unmarked),"cytotoxicity, MTT","25.1 µM, 48 h",,growth inhibition,68.9%
